# Measured values of several laboratories.
# Several values in a cell are separate wells, animals, samples, runs or records.
# Organism: Staphylococcus epidermidis
Structure (SMILES),assay,test system,conditions,MIC
CCCCCCCCCCCCC[C@@H](O)Cc1cc(O)cc(O)c1,"microbial growth, broth dilution",ATCC35984,drug-resistant strain,32 µg/mL
CC[C@H](C)[C@H](NC(=O)[C@@H](Cc1ccccc1)NC)C(=O)OC[C@H](N)C(=O)N[C@H](CCC(N)=O)C(=O)N[C@@H](C(=O)N[C@H](C(=O)OC[C@H](N)C(=O)N[C@H]1C(=O)N[C@@H](C)C(=O)N[C@@H](C2CCCCC2)C(=O)N[C@@H]([C@@H](C)CC)C(=O)O[C@H]1C)[C@@H](C)CC)[C@@H](C)CC,broth microdilution,"ATCC 14990, Mueller-Hinton broth","16 h, 37 °C",0.5 µg/mL
CC(C)C[C@H](NC(=O)CNC(=O)[C@H](C)NC(=O)[C@H](CCCNC(=N)N)NC(=O)[C@H](Cc1c[nH]cn1)NC(=O)CNC(=O)CN)C(=O)N[C@@H](CCC(N)=O)C(=O)N[C@@H](Cc1ccccc1)C(=O)N1CCC[C@H]1C(=O)N[C@H](C(=O)NCC(=O)N[C@@H](CCCNC(=N)N)C(=O)N[C@H](C(=O)N[C@@H](Cc1c[nH]cn1)C(=O)N[C@@H](CCCNC(=N)N)C(=O)N[C@@H](CC(C)C)C(=O)N[C@@H](CC(C)C)C(=O)N[C@@H](CCCNC(=N)N)C(=O)N[C@@H](CCCCN)C(N)=O)C(C)C)C(C)C,,ATCC 12228,18 to 20 h,16 µM
CCCCCCCC(=O)N(C)[C@H](CO)C(=O)N[C@H](C)C(=O)NCC(=O)N(C)[C@@H]1C(=O)N[C@@H](C)C(=O)N[C@H](C(=O)O)Cc2ccc(O)c(c2)-c2cc1ccc2O,broth microdilution,RP62A wild type,"24 h, 37 °C",> 64 µg/mL
CC[C@H](C)[C@@H]1NC(=O)CNC(=O)[C@H](CCCCN)NC(=O)[C@H](C)NC(=O)[C@H](CCC(=O)O)NC(=O)[C@H](Cc2ccccc2)NC(=O)[C@H](CO)NC(=O)[C@H](CC(C)C)NC(=O)[C@H](C(C)C)NC(=O)[C@H](CC(=O)O)NC(=O)[C@@H](NC(=O)[C@@H](NC(=O)[C@@H](N)C(C)C)[C@@H](C)O)CSSC[C@@H]2NC(=O)[C@H](CO)NC(=O)CNC(=O)CNC(=O)[C@H](CCCCN)NC(=O)[C@H](CCCCN)NC(=O)[C@H](CCCNC(=N)N)NC(=O)[C@H](CC(C)C)NC(=O)[C@H](C)NC(=O)[C@H]([C@@H](C)CC)NC(=O)[C@H](C)NC(=O)[C@H](Cc3c[nH]cn3)NC(=O)[C@H](CC(C)C)NC(=O)[C@H](C)NC(=O)[C@H](CSSC[C@@H](C(=O)N[C@H](C(=O)N[C@@H](C)C(=O)N[C@@H](CCCNC(=N)N)C(=O)N[C@@H](CC(N)=O)C(=O)O)C(C)C)NC(=O)[C@H](C(C)C)NC(=O)CNC(=O)[C@H](CC(N)=O)NC(=O)[C@H](CCC(N)=O)NC2=O)NC(=O)[C@H](C)NC(=O)[C@H](CO)NC(=O)[C@H](Cc2c[nH]cn2)NC(=O)[C@H](CC(N)=O)NC(=O)[C@H](C(C)C)NC(=O)[C@H](C)NC1=O,broth microdilution,KCTC 1917,"16 h, 37 °C",> 100 µM
CCCCCCCCCCCCCc1cc(O)cc(O)c1,"microbial growth, broth dilution",ATCC35984,drug-resistant strain,> 64 µg/mL
CC[C@H](C)[C@@H]1NC(=O)CNC(=O)[C@H](CCCCN)NC(=O)[C@H](C)NC(=O)[C@H](CCC(=O)O)NC(=O)[C@H](Cc2ccccc2)NC(=O)[C@H](CO)NC(=O)[C@H](CC(C)C)NC(=O)[C@H](C(C)C)NC(=O)[C@H](CC(=O)O)NC(=O)[C@@H](NC(=O)[C@@H](NC(=O)[C@@H](N)C(C)C)[C@@H](C)O)CSSC[C@@H]2NC(=O)[C@H](CO)NC(=O)CNC(=O)CNC(=O)[C@H](CCCCN)NC(=O)[C@H](CCCCN)NC(=O)[C@H](CCCNC(=N)N)NC(=O)[C@H](CC(C)C)NC(=O)[C@H](C)NC(=O)[C@H]([C@@H](C)CC)NC(=O)[C@@H]3CSSC[C@@H](C(=O)N[C@@H](CCCNC(=N)N)C(=O)N[C@@H](CC(N)=O)C(=O)O)NC(=O)[C@H](C(C)C)NC(=O)[C@H](CSSC[C@H](NC(=O)[C@H](C)NC(=O)[C@H](CO)NC(=O)[C@H](Cc4c[nH]cn4)NC(=O)[C@H](CC(N)=O)NC(=O)[C@H](C(C)C)NC(=O)[C@H](C)NC1=O)C(=O)N[C@@H](C)C(=O)N[C@@H](CC(C)C)C(=O)N[C@@H](Cc1c[nH]cn1)C(=O)N3)NC(=O)[C@H](C(C)C)NC(=O)CNC(=O)[C@H](CC(N)=O)NC(=O)[C@H](CCC(N)=O)NC2=O,broth microdilution,KCTC 1917,"16 h, 37 °C",1.6 µM
CC(C)C[C@H](NC(=O)[C@H](CC(N)=O)NC(=O)[C@H](CCCNC(=N)N)NC(=O)[C@@H](CC(C)C)NC(=O)[C@H](Cc1ccc(-c2ccccc2)cc1)NC(=O)[C@H](CC(=O)O)NC(=O)[C@H](CCCCN)NC(=O)[C@@H](CC(C)C)NC(=O)[C@H](CCCNC(=N)N)NC(=O)[C@H](CCC(N)=O)NC(=O)[C@@H](NC(=O)[C@@H](CC(C)C)NC(=O)[C@H](CCCNC(=N)N)NC(=O)[C@H](CCCCN)NC(=O)[C@H](Cc1ccc(-c2ccccc2)cc1)NC(=O)CN)C(C)C)C(=O)N[C@H](C(N)=O)C(C)C,broth microdilution,"1457, Mueller-Hinton broth","overnight, 37 °C",8 µM
CCCCN1CCNC1=[S+][Ag-3]([O][N+](=O)[O-])([P+](c1ccccc1)(c1ccccc1)c1ccccc1)[P+](c1ccccc1)(c1ccccc1)c1ccccc1,agar dilution,"MTCC 435, Mueller Hinton agar","24 h, 37 °C",1000 µg/mL
CC[C@H](C)[C@H](NC(=O)[C@@H](Cc1ccccc1)NC)C(=O)N[C@@H](CO)C(=O)N[C@H](CCC(N)=O)C(=O)N[C@@H](C(=O)N[C@H](C(=O)N[C@@H](CO)C(=O)N[C@H]1C(=O)N[C@@H](C)C(=O)N[C@@H](C2CCCCC2)C(=O)N[C@@H]([C@@H](C)CC)C(=O)O[C@H]1C)[C@@H](C)CC)[C@@H](C)CC,broth microdilution,"ATCC 14990, Mueller-Hinton broth","16 h, 37 °C",0.5 µg/mL
CC[C@H](C)[C@H](NC(=O)[C@@H](N)C(C)C)C(=O)N[C@@H](Cc1c[nH]cn1)C(=O)N[C@@H](CCCCN)C(=O)N[C@@H](CC(C)C)C(=O)N[C@@H](C)C(=O)N[C@@H](CCCCN)C(=O)N[C@@H](CC(C)C)C(=O)N[C@@H](C)C(=O)N[C@@H](CCCCN)C(=O)N[C@@H](CCCCN)C(=O)N[C@@H](CC(C)C)C(=O)N[C@@H](C)C(=O)N[C@@H](CCCCN)C(=O)N[C@@H](CC(C)C)C(=O)N[C@@H](C)C(=O)N[C@@H](CCCCN)C(N)=O,,ATCC 12228,18 to 20 h,0.25 µM
CC[C@H](C)[C@H](NC(=O)[C@@H](Cc1ccccc1)NC)C(=O)N[C@@H](CO)C(=O)N[C@H](CCCNC(=N)N)C(=O)N[C@@H](C(=O)N[C@H](C(=O)OC[C@H](N)C(=O)N[C@H]1C(=O)N[C@@H](C)C(=O)N[C@@H](CC(C)C)C(=O)N[C@@H]([C@@H](C)CC)C(=O)O[C@H]1C)[C@@H](C)CC)[C@@H](C)CC,broth microdilution,"ATCC 14990, Mueller-Hinton broth","16 h, 37 °C",0.0156 to 0.0312 µg/mL
CC[C@H](C)[C@H](NC(=O)[C@H](CCCNC(=N)N)NC(=O)[C@H](CCCCN)NC(=O)[C@H](CC(C)C)NC(=O)[C@H](CC(C)C)NC(=O)CNC(=O)[C@H](Cc1c[nH]cn1)NC(=O)[C@H](C)NC(=O)[C@@H](N)CC(=O)O)C(=O)N[C@@H](CCCCN)C(=O)N[C@H](C(=O)N[C@@H](CC(C)C)C(=O)N[C@@H](CC(C)C)C(N)=O)[C@@H](C)O,,ATCC 12228,18 to 20 h,16 µM
CN1CCNC1=S.CN1CCNC1=S.O=[N+]([O-])[O-].[Ag+].c1ccc(P(c2ccccc2)c2ccccc2)cc1,agar dilution,"MTCC 435, Mueller Hinton agar","24 h, 37 °C",5 to 10 µg/mL and 7 µg/mL
CC(C)C[C@H](NC(=O)[C@H](CCCCN)NC(=O)[C@H](C)NC(=O)[C@H](CC(C)C)NC(=O)[C@H](CCCCN)NC(=O)[C@H](CCCCN)NC(=O)[C@H](C)NC(=O)[C@H](CC(C)C)NC(=O)[C@H](CCCCN)NC(=O)[C@H](C)NC(=O)[C@H](CC(C)C)NC(=O)[C@H](CCCCN)NC(=O)[C@H](Cc1c[nH]cn1)NC(=O)[C@H](C)NC(=O)[C@@H](N)CC(=O)O)C(=O)N[C@@H](C)C(=O)N[C@@H](CCCCN)C(N)=O,,ATCC 12228,18 to 20 h,4 µM
CCCCCC/C=C\CCCCCCC[C@@H](O)Cc1cc(O)cc(O)c1,"microbial growth, broth dilution",ATCC35984,drug-resistant strain,> 64 µg/mL

# A few entries again:
Structure (SMILES),assay,test system,conditions,MIC
CC[C@H](C)[C@H](NC(=O)[C@H](CCCNC(=N)N)NC(=O)[C@H](CCCCN)NC(=O)[C@H](CC(C)C)NC(=O)[C@H](CC(C)C)NC(=O)CNC(=O)[C@H](Cc1c[nH]cn1)NC(=O)[C@H](C)NC(=O)[C@@H](N)CC(=O)O)C(=O)N[C@@H](CCCCN)C(=O)N[C@H](C(=O)N[C@@H](CC(C)C)C(=O)N[C@@H](CC(C)C)C(N)=O)[C@@H](C)O,,ATCC 12228,18 to 20 h,16 µM
